Published values pooled from the literature.
Each numbered part is a random draw from the data of one study; scales do not carry over between parts.

Set 1
Target: Interferon regulatory factor 7, full length, phosphomimetic (IRF7, Homo sapiens, UniProt Q92985, residues 1-503, S471D/S472D/S475D/S476D/S477D/S483D/S484D/S487D)
Technique: protein-binding microarray
Molecule type: double-stranded DNA, one strand shown
Matrix: in vitro
Concentration: 2200 nM top
Notes: 60-bp whole probe
With: salmon DNA 0.4 mg/ml
Reference: random background probes
Direction: higher = stronger binding
All sequences stand within: GCCTAGCAC … GTCTTGATTCGCTTGACGCTGCTG
Residues (chain): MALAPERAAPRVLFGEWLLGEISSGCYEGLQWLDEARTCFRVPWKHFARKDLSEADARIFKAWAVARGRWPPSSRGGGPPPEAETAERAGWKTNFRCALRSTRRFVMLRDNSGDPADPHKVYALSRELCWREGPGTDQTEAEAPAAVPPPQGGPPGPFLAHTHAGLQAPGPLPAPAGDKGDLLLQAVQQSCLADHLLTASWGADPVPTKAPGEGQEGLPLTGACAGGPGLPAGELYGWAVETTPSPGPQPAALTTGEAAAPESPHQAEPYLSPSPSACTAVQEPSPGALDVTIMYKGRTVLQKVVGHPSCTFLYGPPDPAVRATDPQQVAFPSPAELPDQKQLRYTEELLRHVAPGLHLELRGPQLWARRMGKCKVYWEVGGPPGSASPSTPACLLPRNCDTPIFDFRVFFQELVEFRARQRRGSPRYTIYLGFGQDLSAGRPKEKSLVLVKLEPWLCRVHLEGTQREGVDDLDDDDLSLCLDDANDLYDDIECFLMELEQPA
Strand | fitted relative affinity [z-score]
TCAAGGCTGGTCTCTAACACTGTGCTA | -0.826
TTAGATATCGGGACTGGATAAGTGCTA | -0.393
TTAGATTTCTGGACTGGATTAGTGCTA | 0.056
AACGGACTGCTACTGCTGACGTGCTAG | -0.226
AAGTTTCTCCTTTCCAAATAGTGCTAG | 4.28
TTAGGTATCGACACAGGGTTAGTGCTA | -0.199
TAAGATATCAGACTGGATTAGTGCTAG | -0.524
CCCCAACTCGCCTTTTTTGTTGTGCTA | 0.242
TTTGGTTTCGACTTTCGGTTAGTGCTA | 11.9
GACGCACTGGACTATCGGGACGTGCTA | -0.392
TTTGCTTTCCTGATGGTCTTGTGCTAG | 3.06
GACGATATCAATCTCGAGACGTGCTAG | 0.329
GACGGTTCCCTTCTCCTGACGTGCTAG | 1.56
TCACACTCCAGTCTGGGACTGTGCTAG | 0.781
GACGGTTTCGGTCTCCGGACGTGCTAG | 8.16
TCATTTATGTACTCTCTAACTGTGCTA | 1.38
TTAGGTTCCGGTTTTGGTTAGTGCTAG | 3.83
TTTAAGCTCCTATCTTATGATGTGCTA | 0.335
TTAGGCTTCGGGTATCGGTTAGTGCTA | 0.285

Set 2
Target: Histone acetyltransferase KAT6A, winged helix 2, GST fusion (KAT6A, Homo sapiens, UniProt Q92794, residues 85-181)
Technique: protein binding microarray
Molecule type: double-stranded DNA, one strand shown
Matrix: in vitro
Concentration: not given
Notes: 8-mer, flanks averaged, mean of 2 arrays, mostly near background
Reference: not given
Direction: higher = stronger binding
Target sequence (chain): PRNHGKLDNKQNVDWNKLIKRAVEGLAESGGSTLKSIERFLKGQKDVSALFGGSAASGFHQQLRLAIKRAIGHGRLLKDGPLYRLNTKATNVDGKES
Strand | E-score
CACAGACC | 0.209
AAGTCCTG | -0.0172
AGAACGTG | -0.0965
ATCCTTAA | -0.12
ATAGTTAA | -0.0625
AGAGGGGA | -0.0141
CTTCTCTA | -0.0186
GTAAGCCA | -0.119
GCAGGTCA | -0.00266
CAACAATC | 0.019
AAGCTGCC | -0.00413
GGAAGGTA | -0.0555
AGATATAA | 0.0478
CGAGCGTC | -0.0161
CCACCCAC | 0.0231
ACCATCCC | -0.0229
CTCGTGTC | 0.0934
ATATCACC | -0.0194
GGACGGAA | -0.071
ACTTGTTG | -0.149
CCAGGATA | -0.0158
GCTCCTAC | 0.0609

Set 3
Target: Sal-like protein 4, full length isoform B (SALL4, Homo sapiens, UniProt Q9UJQ4-2, residues 1-616)
Technique: universal PBM
Molecule type: double-stranded DNA, one strand shown
Matrix: in vitro
Concentration: not given
Notes: 8-mer, flanks averaged, mean of replicates
Direction: higher = stronger binding
Residues (chain): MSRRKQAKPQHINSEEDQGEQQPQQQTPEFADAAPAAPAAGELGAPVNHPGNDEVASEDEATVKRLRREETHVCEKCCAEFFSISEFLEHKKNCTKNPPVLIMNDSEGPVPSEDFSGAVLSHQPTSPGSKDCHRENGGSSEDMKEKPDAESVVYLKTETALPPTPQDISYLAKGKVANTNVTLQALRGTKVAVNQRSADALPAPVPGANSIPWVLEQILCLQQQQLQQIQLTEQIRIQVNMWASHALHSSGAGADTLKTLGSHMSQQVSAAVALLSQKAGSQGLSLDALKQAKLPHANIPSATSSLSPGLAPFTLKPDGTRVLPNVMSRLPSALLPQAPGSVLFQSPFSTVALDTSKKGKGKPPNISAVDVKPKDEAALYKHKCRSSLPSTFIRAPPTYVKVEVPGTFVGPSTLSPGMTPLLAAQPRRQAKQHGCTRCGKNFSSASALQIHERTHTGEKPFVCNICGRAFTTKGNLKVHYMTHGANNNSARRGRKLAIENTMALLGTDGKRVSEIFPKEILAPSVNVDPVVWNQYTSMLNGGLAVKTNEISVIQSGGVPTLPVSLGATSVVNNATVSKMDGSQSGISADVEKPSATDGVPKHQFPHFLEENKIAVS
Strand | E-score
ATATCGTG | 0.114
GGTTCTGA | -0.0973
CTAGCTCA | -0.151
AAGTTCAT | 0.14
ACGCGTCA | 0.0848
CACATTGG | 0.013
ATTGAAAA | 0.375
GGACGTTA | 0.0322
CCGTGACG | -0.155
ACGGCTAC | -0.0963
GAGCGGCA | -0.231
CTAGTCCA | -0.0713
ATCCCGGC | -0.198
CATCTACG | 0.164
GTCAGCAC | -0.14
CGGAAACA | 0.0267

Set 4
Target: RNA binding protein fox-1 homolog 2, RRM domain, GST-SBP tag (RBFOX2, Homo sapiens, UniProt O43251-10, residues 100-194)
Technique: RNA Bind-n-Seq
Molecule type: RNA
Matrix: in vitro
Concentration: 365 nM
Notes: natural RNA segment, single round, ends assumed
Reference: no-protein control
Direction: higher = stronger binding
All sequences stand within: GGGAGUUCUACAGUCCGACGAUC … UGGAAUUCUCGGGUGCCAA
Residues (chain): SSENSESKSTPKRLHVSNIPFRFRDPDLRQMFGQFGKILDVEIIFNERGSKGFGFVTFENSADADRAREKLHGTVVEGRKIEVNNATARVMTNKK
Strand | RBNS enrichment (R)
UAUUUGUUACUAAAGCUAUAUUUCUGAUAAAAAAUAUUUUAGGAUAAUUGCCUACAGAGGGAUUUAUUUUUAUGAUGCUGGAAAUAUGAAAUGUAUUUUAAAAUUUCACU | 0.776
CUCCGAAACAAGUAGAAAAGUGCUGUUUGAGGGAUUUUAUUAAAUCUUUUUUUAAUGGAAUGUGGUACAAAUUGUUCAUGUUACCAAAGCAAUAUUUCCCUGGAAUUUAA | 0.716
CCCACCUGCUUAUUUAAAAUCAAGUUUAUUGUAGAAAUGGUGUGGUGUUGAUGUGUGUUUUCCCUAAAACUCUAAUUUCAUCUCAUCUGUGGGCAGCCCUGCUCUCUGGA | 0.204
CUUCUUGGGCCAGGUCUGUCCCAUGAGUCAAAUUUAGGAAAGCAAGGAUAGGUUUUGUCAUAGAUAUGGAUAGUUGGACAUACAAAAUAAAGACCUAGAAUCCAGUCAUA | 0.471
AAAAAAGAAAAGGAAAAACCCCGUGCUCGCCCCCUUCCUCCUGCCGUCCACUGCGCGGCCUCGUCAGUCCCGGGGCUGACUGUCCCUCUCAGCUCUGCGCCUGCCAGGCA | 0.741
CUGGUCAGACUCUGAUGUUGGGUAGCUGGCCUCUGUGGGGAUUGUAAGUGCCCUGAGGCGCUCUGUACUAGAAACUGCUCUUAAUAAUAACGGUGAUUAUUGGUUGCUGC | 0.771
AUCUCCUUCCUGAGGAGCCGGGAGGCUGGACCAGUCCCGUCGUGCAGUCAGGUGGGCGGUGUGUCUUUCCAGAAGGUCACGUGGAAAUGUCUCGGGACUUGGGUCCCGGA | 0.213
GUGGAGCAACAGCUUUAGAGUGACUCAACUCCUAUCACCAGGAGAAACAAUUCUGAAAACUGGUCCCUGGUGGUCAGCAGGAAAUGAUCUUUAUUUUUAUGCUAACAACC | 0.276

Repeated from above (set 2):
Strand | E-score
CTTCTCTA | -0.0186
GTAAGCCA | -0.119
GCAGGTCA | -0.00266
CAACAATC | 0.019
AAGCTGCC | -0.00413
GGAAGGTA | -0.0555
AGATATAA | 0.0478
CGAGCGTC | -0.0161
CCACCCAC | 0.0231
ACCATCCC | -0.0229
